Measured values gathered from unrelated publications.
Protocols differ between the studies behind these lines. Values joined by “and” are separate records of one study, mostly repeats; a detail may differ. Numbers after ± are the reported error.

SMILES | test | test system | conditions | scale | Cmax
CC[C@H](C)[C@@H]([C@@H](CC(=O)N1CCC[C@H]1[C@H](OC)[C@@H](C)C(=O)N[C@@H](Cc1ccccc1)C(=O)NCCCO)OC)N(C)C(=O)[C@@H](NC(=O)[C@H](C(C)C)N(C)C)C(C)C |  | human patients, plasma | intravenous, 30 mg/m², cycle 1 geometric mean |  | 6.73 ng/mL
Nc1ccc(S(=O)(=O)Nc2ccccn2)cc1 |  | human | oral, 1000 mg, day 1, sulfasalazine alone |  | 5800 ng/mL
CC1=C(c2cccc(O)c2)[C@H](c2ccc(OCCN3CC(CF)C3)cc2)Oc2ccc(O)cc21 |  | human, plasma | oral, 1400 mg single dose, geometric mean |  | 159 ng/mL
Cn1cncc1-c1c(F)cncc1NC(=O)c1c(N)nn2cc(F)cnc12 |  | human patients, plasma | oral, 90 mg, cycle 1 day 1 |  | ~583 ng/mL
Cn1ncnc1[C@H]1c2n[nH]c(=O)c3cc(F)cc(c23)N[C@@H]1c1ccc(F)cc1 |  | human patients, plasma | oral, 400 µg/m2 twice daily, day 1, monotherapy, dose level DL2, median |  | 1.6 ng/mL
N[C@](CO)(CCc1ccc(Sc2cccc(OCc3ccccc3)c2)cc1Cl)COP(=O)(O)O |  | human, fed, whole blood | 3 mg, geometric mean, with: itraconazole 200 mg once daily |  | 1.17 ng/mL
O=C(O)CCCCCCCCCCC(=O)O |  | human, plasma | oral, dose not given | reference: untreated | 55.6 ± 4.4 nM
Cc1cc(-c2nccc3c2ccn3CC(=O)Nc2ccc(-c3cnccn3)cn2)ccn1 |  | human, plasma | oral, 15 mg once daily, day 1, geometric mean |  | 184 nM
CC(C)(C(=O)N1CCOc2c(C#N)cncc2C1)C(F)F |  | humans, both sexes, plasma | oral, 10 mg once daily, day 14, geometric mean |  | 158 ng/mL
N[C@@H]1c2cccnc2[C@H](OC(=O)N2CCC(n3c(=O)[nH]c4ncccc43)CC2)CC[C@H]1c1cccc(F)c1F |  | human, plasma | oral, 75 mg single dose, alone, geometric mean, fluconazole DDI study |  | 918 ng/mL
CCN(CC)CCNC(=O)c1c(C)[nH]c(/C=C2\C(=O)Nc3ccc(F)cc32)c1C |  | human, moderate hepatic impairment (Child-Pugh), plasma | single dose, geometric mean, total drug |  | 22.7 ng/mL
Cc1ncnc2c1ccn2[C@@H]1C[C@H](Oc2cc(C(F)F)c(F)c3c2CNCC3)[C@@H](O)[C@H]1O |  | human | oral, 1 mg twice daily |  | 27.5 ng/mL and 12.2 ng/mL
CC(C)n1nc(-c2ccc3oc(N)nc3c2)c2c(N)ncnc21 |  | human, plasma | oral, 2 mg once daily, cycle 1 day 1 |  | 23.9 ng/mL
N[C@]1(C(=O)O)[C@H]2[C@@H](C[C@@H]1F)[C@@H]2C(=O)O |  | human, both sexes, plasma | oral, 10 mg, fed, single dose |  | 26.6 ng/mL
COc1ccc(F)cc1C(=O)NCc1ccc(-c2nn([C@@H](C)C(F)(F)F)c(N)c2C(N)=O)cc1 |  | human, fasted, plasma | oral, 200 mg single dose, pilot food-effect study |  | 5450 ng/mL
C[C@H](Oc1ccc(Br)cc1-c1ccon1)C(=O)O | LC-MS/MS, non-compartmental | human, plasma | 400 mg once daily, day 1, multiple ascending dose, mean |  | 24900 ng/mL
Cn1cncc1[C@@](N)(c1ccc(Cl)cc1)c1ccc2c(c1)c(-c1cccc(Cl)c1)cc(=O)n2C |  | human, plasma | oral, dose not given, with: ranitidine |  | 76.1 ng/mL
NC1(C(=O)N[C@@H](CCO)c2ccc(Cl)cc2)CCN(c2nc[nH]c3nccc2-3)CC1 |  | human, plasma | concentration not given, with: enzalutamide |  | 408 ng/mL and 225 ng/mL and 479 ng/mL
CNC(=O)c1cc(Cl)c(OC(C)(C)C(=O)O)cc1OC[C@@H](O)CN1CCC2(CC1)Cc1cc(Cl)ccc1O2 |  | healthy human, plasma | inhaled, dose not given |  | 8.7 nM
COc1ccc([C@@H](O)c2cc(-c3ncnc4cc(N5CCOCC5)ccc34)c(F)cc2Cl)nn1 |  | healthy human volunteers, plasma | oral, 100 mg single dose, tablet, fed high-fat, geometric mean |  | 279 ng/mL

For quick reference, copied from above:
SMILES | test | test system | conditions | scale | Cmax
C[C@H](Oc1ccc(Br)cc1-c1ccon1)C(=O)O | LC-MS/MS, non-compartmental | human, plasma | 400 mg once daily, day 1, multiple ascending dose, mean |  | 24900 ng/mL
Nc1ccc(S(=O)(=O)Nc2ccccn2)cc1 |  | human | oral, 1000 mg, day 1, sulfasalazine alone |  | 5800 ng/mL
